Experimental data collected from several papers.
Protocols differ between the studies behind these lines. Numbers after ± are the reported error.

`N=C(N)NCCC[C@@H]1NC(=O)[C@H](CC(=O)NC23CNCCNCC(N)(CNCCNC2)CNCCNC3)NC(=O)[C@@H](Cc2ccccc2)NC(=O)[C@H](CC(=O)O)NC(=O)CNC1=O` [copper-64 labelled] has a tissue uptake of 0.63 ± 0.09 %ID/g (Nu/Nu mouse, male, tumour-bearing, lung; intravenous, 10 µCi, 24 h).
With `N=C(N)NCCC[C@@H]1NC(=O)[C@H](CCCCNC(=O)CC[C@H](NC(=O)CCOCCOCCOCCOCCNC(=O)CC[C@H](NC(=O)CN2CCN(CC(=O)O)CCN(CC(=O)O)CCN(CC(=O)O)CC2)C(=O)NCCOCCOCCOCCOCCC(=O)N[C@@H](CCC(=O)NCCCC[C@@H]2NC(=O)[C@@H](Cc3ccccc3)NC(=O)[C@H](CC(=O)O)NC(=O)CNC(=O)[C@H](CCCNC(=N)N)NC2=O)C(=O)NCCCC[C@@H]2NC(=O)[C@@H](Cc3ccccc3)NC(=O)[C@H](CC(=O)O)NC(=O)CNC(=O)[C@H](CCCNC(=N)N)NC2=O)C(=O)NCCCC[C@@H]2NC(=O)[C@@H](Cc3ccccc3)NC(=O)[C@H](CC(=O)O)NC(=O)CNC(=O)[C@H](CCCNC(=N)N)NC2=O)NC(=O)[C@@H](Cc2ccccc2)NC(=O)[C@H](CC(=O)O)NC(=O)CNC1=O` [indium-111 labelled] the tissue uptake was 1.1 ± 0.22 %ID/g (female athymic nude mice, eyes; intravenous, 3 µCi, 1 h, U-87 MG glioma xenograft).
For `CSCC[C@H](NC(=O)[C@H](CC(C)C)NC(=O)[C@H](Cc1c[nH]cn1)NC(=O)CNC(=O)[C@@H](NC(=O)[C@H](C)NC(=O)[C@H](Cc1c[nH]c2ccccc12)NC(=O)[C@H](CCC(N)=O)NC(=O)CNC(=O)[C@H](CO)NC(=O)CNC(=O)CCCCCCCNC(=O)CCC(=O)Nc1ccc(CNC23CNCCNCC(N)(CNCCNC2)CNCCNC3)cc1)C(C)C)C(N)=O` [copper-64 labelled], the tissue uptake was 52 ± 4.42 %ID/g (female SCID mice, PC-3 xenograft, pancreas; intravenous, 0.6 MBq, 1 h).
The tissue uptake of `CCCC[C@H](NC(=O)CCCCCCCNC(=O)c1ccc(NN)nc1)C(=O)N[C@H]1CC(=O)NCCCC[C@@H](C(N)=O)NC(=O)[C@H](Cc2c[nH]c3ccccc23)NC(=O)[C@H](CCCNC(=N)N)NC(=O)[C@@H](Cc2ccccc2)NC(=O)[C@H](Cc2c[nH]cn2)NC1=O` [technetium-99m labelled] is reported as 0.06 ± 0.02 %ID/g (C57 mouse, B16/F1 melanoma, pancreas; 2 h, with: L-lysine 12 mg co-injected).
`N=C(N)NCCC[C@@H]1NC(=O)[C@H](CCCCNC(=O)CNC(=O)CNC(=O)CNC(=O)CC[C@H](NC(=O)c2ccc(NN=Cc3ccccc3S(=O)(=O)O)nc2)C(=O)NCC(=O)NCC(=O)NCC(=O)NCCCC[C@@H]2NC(=O)[C@@H](Cc3ccccc3)NC(=O)[C@H](CC(=O)O)NC(=O)CNC(=O)[C@H](CCCNC(=N)N)NC2=O)NC(=O)[C@@H](Cc2ccccc2)NC(=O)[C@H](CC(=O)O)NC(=O)CNC1=O` [technetium-99m labelled] gave a tissue uptake of 2.68 ± 0.46 %ID/g (athymic nu/nu mouse, female, MDA-MB-435 xenograft, liver; intravenous, 120 min).
`CCCC[C@H](NC(=O)CNC(=O)CNC(=O)c1ccc(NN)nc1)C(=O)N[C@H]1CC(=O)NCCCC[C@@H](C(N)=O)NC(=O)[C@H](Cc2c[nH]c3ccccc23)NC(=O)[C@H](CCCNC(=N)N)NC(=O)[C@@H](Cc2ccccc2)NC(=O)[C@H](Cc2c[nH]cn2)NC1=O` [technetium-99m labelled] has a tissue uptake of 0.12 ± 0.08 %ID/g (C57 mouse, B16/F1 melanoma-bearing, blood; intravenous, 4 h).
For `N=C(N)NCCC[C@@H]1NC(=O)[C@H](CCCCNC(=O)CCOCCOCCOCCOCCNC(=O)CC[C@H](NC(=O)CCOCCOCCOCCOCCNC(=O)CC[C@H](NC(=O)CN2CCN(CC(=O)O)CCN(CC(=O)O)CCN(CC(=O)O)CC2)C(=O)NCCOCCOCCOCCOCCC(=O)N[C@@H](CCC(=O)NCCOCCOCCOCCOCCC(=O)NCCCC[C@@H]2NC(=O)[C@@H](Cc3ccccc3)NC(=O)[C@H](CC(=O)O)NC(=O)CNC(=O)[C@H](CCCNC(=N)N)NC2=O)C(=O)NCCOCCOCCOCCOCCC(=O)NCCCC[C@@H]2NC(=O)[C@@H](Cc3ccccc3)NC(=O)[C@H](CC(=O)O)NC(=O)CNC(=O)[C@H](CCCNC(=N)N)NC2=O)C(=O)NCCOCCOCCOCCOCCC(=O)NCCCC[C@@H]2NC(=O)[C@@H](Cc3ccccc3)NC(=O)[C@H](CC(=O)O)NC(=O)CNC(=O)[C@H](CCCNC(=N)N)NC2=O)NC(=O)[C@@H](Cc2ccccc2)NC(=O)[C@H](CC(=O)O)NC(=O)CNC1=O` [indium-111 labelled], the tissue uptake was 2.1 %ID/g (female athymic nude mice, spleen; intravenous, 3 µCi, 1 h, U-87 MG glioma xenograft).
`CSCC[C@H](NC(=O)[C@H](CC(C)C)NC(=O)[C@H](Cc1c[nH]cn1)NC(=O)CNC(=O)[C@@H](NC(=O)[C@H](C)NC(=O)[C@H](Cc1c[nH]c2ccccc12)NC(=O)[C@H](CCC(N)=O)NC(=O)CCCCNC(=O)CSCCSCCP(CO)CO)C(C)C)C(N)=O` [technetium-99m labelled] gave a tissue uptake of 1.5 %ID (female CF-1 mouse, carcass; intravenous, 24 h).
With `N=C(N)NCCC[C@@H]1NC(=O)[C@H](CCCCNC(=O)CCOCCOCCOCCOCCNC(=O)CN2CCN(CC(=O)O)CCN(CC(=O)O)CCN(CC(=O)O)CC2)NC(=O)[C@@H](Cc2ccccc2)NC(=O)[C@H](CC(=O)O)NC(=O)CNC1=O` [indium-111 labelled] the tissue uptake was 0.14 ± 0.01 %ID/g (female athymic nude mice, eyes; intravenous, 3 µCi, 24 h, U-87 MG glioma xenograft).
For `CSCC[C@H](NC(=O)[C@H](CC(C)C)NC(=O)[C@H](Cc1c[nH]cn1)NC(=O)CNC(=O)[C@@H](NC(=O)[C@H](C)NC(=O)[C@H](Cc1c[nH]c2ccccc12)NC(=O)[C@H](CCC(N)=O)NC(=O)CCCCCNC(=O)CNC(=O)CNC(=O)CNC(=O)CSC(C)=O)C(C)C)C(N)=O` [technetium-99m labelled], the tissue uptake was 0.13 ± 0.03 %ID/g (Swiss mouse, lung; intravenous, 18.5 MBq, 240 min).
